Values quoted from earlier work, collected from citations in different studies.
Each line is one published result; not all experiments were run side by side.
Chain of UniProt Q7L7X3 (whole entry, looked up): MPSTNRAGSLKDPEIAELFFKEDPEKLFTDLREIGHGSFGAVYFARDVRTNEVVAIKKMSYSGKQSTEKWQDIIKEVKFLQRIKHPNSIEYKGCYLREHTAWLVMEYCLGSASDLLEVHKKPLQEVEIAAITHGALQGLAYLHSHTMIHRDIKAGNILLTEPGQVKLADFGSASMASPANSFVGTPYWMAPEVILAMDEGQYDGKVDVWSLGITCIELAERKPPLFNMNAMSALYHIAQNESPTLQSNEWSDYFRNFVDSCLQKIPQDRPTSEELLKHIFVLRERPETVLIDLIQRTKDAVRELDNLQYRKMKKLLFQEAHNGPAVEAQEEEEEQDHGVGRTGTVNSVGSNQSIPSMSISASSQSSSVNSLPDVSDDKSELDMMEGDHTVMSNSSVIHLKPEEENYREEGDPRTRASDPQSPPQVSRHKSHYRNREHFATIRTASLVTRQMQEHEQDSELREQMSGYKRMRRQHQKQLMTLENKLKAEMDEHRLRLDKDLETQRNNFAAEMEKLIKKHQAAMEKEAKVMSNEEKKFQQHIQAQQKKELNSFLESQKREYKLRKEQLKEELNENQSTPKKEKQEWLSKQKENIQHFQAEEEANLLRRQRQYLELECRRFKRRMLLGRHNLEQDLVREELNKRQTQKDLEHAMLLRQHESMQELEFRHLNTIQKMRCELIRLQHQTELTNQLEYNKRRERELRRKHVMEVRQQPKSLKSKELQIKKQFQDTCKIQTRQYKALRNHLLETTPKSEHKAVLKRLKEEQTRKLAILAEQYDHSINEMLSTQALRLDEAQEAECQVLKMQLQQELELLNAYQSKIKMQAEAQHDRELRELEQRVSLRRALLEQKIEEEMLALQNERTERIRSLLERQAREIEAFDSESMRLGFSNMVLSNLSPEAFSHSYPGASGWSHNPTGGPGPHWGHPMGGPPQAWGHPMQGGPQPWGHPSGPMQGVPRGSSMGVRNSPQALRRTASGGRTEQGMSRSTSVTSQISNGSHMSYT

Compound	target or system	test	system	setting	scale	endpoint	value
CN(C)C(=O)c1cc2cnc(Nc3ccc(N4CCNCC4)cn3)nc2n1C1CCCC1	–	–	mouse	dose not given	–	oral bioavailability	65%
Nc1nc(NC2CC2)c2ncn([C@H]3C=C[C@@H](CO)C3)c2n1	–	–	mouse	–	–	oral bioavailability	76%
COc1ccc(CNc2nc(-c3ccc(C(=O)O)cc3)nc3sc4ccccc4c23)cc1Cl	–	–	mouse	–	–	oral bioavailability	~15%
CC(F)(F)c1cc(F)ccc1-c1sc2cc(O)ccc2c1Oc1ccc(/C=C/C(=O)O)cc1	–	–	mouse, rat, dog	range across species	–	oral bioavailability	6 to 13%
Nc1cc(C(F)(F)F)c(-c2nc(N3CCOCC3)nc(N3CCOCC3)n2)cn1	Serine/threonine-protein kinase TAO1 (TAOK1, Homo sapiens, UniProt Q7L7X3)	enzyme activity	–	10 µM	baseline: untreated	remaining activity	86%
CC(C)[C@H](C(=O)Nc1ccc(C(=O)NO)cc1)c1ccccc1	–	–	CD2F1 mouse	oral, 50 mg/kg single dose	–	oral bioavailability	27%
O=C1NC(=O)/C(=C/c2ccc3ncnc(N4CCCCC4)c3n2)S1	–	–	mouse	–	–	oral bioavailability	~46%
O=C(CCCCCCC(=O)Nc1ccccc1)NO	–	–	BALB/c nude mouse	oral, 50 mg/kg single dose	–	oral bioavailability	8.33%
N#C[C@@]1(c2ccc3c(N)ncnn23)O[C@H](CO)[C@@H](O)[C@H]1O	–	–	mouse	–	–	oral bioavailability	39%

Some of these lines once more:
Compound	target or system	test	system	setting	scale	endpoint	value
CN(C)C(=O)c1cc2cnc(Nc3ccc(N4CCNCC4)cn3)nc2n1C1CCCC1	–	–	mouse	dose not given	–	oral bioavailability	65%
